Published values of several laboratories.
Protocols differ between the studies behind these lines. Numbers after ± are the reported error.
Chain of UniProt P04629 (whole entry, looked up): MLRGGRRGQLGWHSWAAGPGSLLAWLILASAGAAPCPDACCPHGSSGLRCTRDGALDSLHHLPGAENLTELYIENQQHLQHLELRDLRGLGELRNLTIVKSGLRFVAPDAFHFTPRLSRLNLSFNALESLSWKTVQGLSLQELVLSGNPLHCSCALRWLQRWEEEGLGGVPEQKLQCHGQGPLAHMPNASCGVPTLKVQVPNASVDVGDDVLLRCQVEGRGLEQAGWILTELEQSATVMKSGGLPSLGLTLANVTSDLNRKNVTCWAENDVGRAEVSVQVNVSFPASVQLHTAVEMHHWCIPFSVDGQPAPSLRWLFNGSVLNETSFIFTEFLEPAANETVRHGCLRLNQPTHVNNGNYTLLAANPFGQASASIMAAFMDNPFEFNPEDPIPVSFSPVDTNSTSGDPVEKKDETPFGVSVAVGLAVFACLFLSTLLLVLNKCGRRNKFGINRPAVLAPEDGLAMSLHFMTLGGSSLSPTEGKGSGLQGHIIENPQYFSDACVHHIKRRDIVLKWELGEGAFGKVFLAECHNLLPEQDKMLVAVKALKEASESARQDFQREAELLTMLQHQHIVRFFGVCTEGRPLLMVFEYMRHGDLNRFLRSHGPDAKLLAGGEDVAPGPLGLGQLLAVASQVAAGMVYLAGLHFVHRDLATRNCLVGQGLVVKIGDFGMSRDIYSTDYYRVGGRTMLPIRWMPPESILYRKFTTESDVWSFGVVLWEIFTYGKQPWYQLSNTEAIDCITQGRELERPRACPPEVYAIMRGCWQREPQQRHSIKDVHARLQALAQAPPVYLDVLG

SMILES | tested on | test | system | conditions | how to read | endpoint | value
C=CCNc1c(O)cc2c(O)c1C[C@@H](C)C[C@H](OC)[C@H](O)[C@@H](C)/C=C(\C)[C@H](OC(N)=O)[C@@H](OC)/C=C\C=C(/C)C(=O)N2 |  |  | unresectable or metastatic sarcoma | intravenous, 300 mg/m^2, grade 3-4 lab change |  | patients with ALP increase | 33%
C[C@@H](NC(=O)N1C(=O)[C@H](Cc2ccnc(N)c2)[C@H]1C(=O)O)C1CCCCC1 |  |  | healthy adult Chinese volunteers | continuous intravenous infusion, 1.0 mg/kg/h, 5-day infusion, CTCAE 5.0 grading |  | incidence of diarrhea | 0%
O=c1ccc2ncc(=O)n3c2n1C[C@H]3CN1CCC(NCc2cc3c(cn2)OCCC3)CC1 |  |  | healthy human volunteers | oral, 1500 mg, rifampicin cohort, with: rifampicin 600 mg |  | incidence of any adverse event | 29%
Cc1ccccc1C(=O)NN=Cc1ccc(O)c(Br)c1 |  |  | normal C3H/HeN mouse, plasma | intraperitoneal, 1.6 mg/kg | relative to: intravenous 1.6 mg/kg | oral bioavailability F | 90.6%
CCN(CCO)CCCC(C)Nc1ccnc2cc(Cl)ccc12 (stereo not shown) |  |  | newly diagnosed glioblastoma patients | oral, 200 mg/dose, grade 1, with: radiotherapy plus temozolomide |  | creatinine increased patients | 33%
C[C@]1(CO)Cc2ncn(-c3ccc(C#N)c(Cl)c3)c2C(=O)O1 |  | item: involuntary muscle contractions | human | 2 mg single dose |  | subjects with drug-related TEAE | 0%
O=C(O)CCCOc1ccc(F)cc1-c1cc(-c2ccccc2C(F)(F)F)n(-c2ccccc2)n1 |  | item: γ-glb | Crl:CD(SD) rats, female, serum | iv, 25 µg/kg, 1 day |  | serum protein fraction | 5.5 ± 1.4%
C[C@H]1CN(c2n[nH]c3nc(N[C@H]4CC[C@H](NS(=O)(=O)CCC(F)(F)F)CC4)ncc23)CCO1 | NTRK1 (Homo sapiens, UniProt P04629) | biochemical |  |  |  | IC50 | ≥ 20 µM
CC1(C)[C@H](C=C(Cl)Cl)[C@H]1C(=O)OCc1cccc(Oc2ccccc2)c1 |  | item: CYP2C8 | human, age 5 years, recombinant human CYP2C8 | 0.1 µM |  | enzyme contribution to clearance | 0.04%
Cc1cn([C@H]2O[C@@H](CO[P@@](=O)(N[C@@H](C)C(=O)OC(C)C)Oc3ccccc3)[C@H](O)[C@H]2F)c(=O)[nH]c1=O |  | item: common cold | human | 50 mg |  | patients with TEAE | 0%
CC(C)n1c(C2CCNCC2)nc2c([N+](=O)[O-])c(Br)c(Br)cc21 |  | item: Nausea | AML patients | 125 mg |  | adverse events any grade | 49%
CC(C)C[C@H](NC(=O)[C@H](CCCCN)NC(=O)OCC1c2ccccc2-c2ccccc21)C(=O)N[C@H](C(=O)N[C@@H](Cc1ccccc1)C(=O)N[C@@H](Cc1ccccc1)C(=O)N[C@@H](CCCCN)C(=O)NCC(=O)N[C@@H](Cc1ccccc1)C(=O)N[C@@H](C)C(=O)N[C@@H](Cc1c[nH]c2ccccc12)C(=O)N[C@@H](CC(N)=O)C(=O)N[C@H](C(=O)N[C@H]1CSSC[C@@H](C(=O)N[C@@H](Cc2c[nH]cn2)C(=O)N[C@@H](CCCNC(=N)N)C(=O)N[C@@H](CCCNC(=N)N)C(=O)N[C@@H](C)C(=O)N[C@@H](CC(N)=O)C(N)=O)NC(=O)[C@H](C(C)C)NC(=O)[C@H](CCCNC(=N)N)NC(=O)[C@H](C(C)C)NC(=O)CNC(=O)[C@H](CC(N)=O)NC(=O)[C@H](CCCNC(=N)N)NC(=O)[C@H](Cc2ccc(O)cc2)NC(=O)[C@H](C(C)C)NC1=O)C(C)C)C(C)C |  |  | ICR mice, serum | intraperitoneal, 5 mg/kg, day 5 |  | calcium | 1.39 ± 0.04 mmol/L
C[C@@H]1NC(=O)[C@H](CCCCNC(=O)CO/N=C/C(=O)NCCCC[C@@H]2NC(=O)[C@@H](Cc3ccccc3)NC(=O)[C@H](CC(=O)O)NC(=O)CNC(=O)[C@H](CCCNC(=N)N)NC2=O)NC(=O)CNC(=O)[C@@H]2CCCN2C(=O)[C@H](CCCCNC(=O)CO/N=C/C(=O)NCCCC[C@@H]2NC(=O)[C@@H](Cc3ccccc3)NC(=O)[C@H](CC(=O)O)NC(=O)CNC(=O)[C@H](CCCNC(=N)N)NC2=O)NC(=O)[C@H](CCCCNC(=O)CCNC(=O)CCNC(=O)CCNC(=O)[C@H](CCCCN)NC(=O)[C@H](Cc2ccccc2)NC(=O)CNC(=O)CN2CCCNCCNCCCNCC2)NC(=O)[C@H](CCCCNC(=O)CO/N=C/C(=O)NCCCC[C@@H]2NC(=O)[C@@H](Cc3ccccc3)NC(=O)[C@H](CC(=O)O)NC(=O)CNC(=O)[C@H](CCCNC(=N)N)NC2=O)NC(=O)CNC(=O)[C@@H]2CCCN2C(=O)[C@H](CCCCNC(=O)CO/N=C/C(=O)NCCCC[C@@H]2NC(=O)[C@@H](Cc3ccccc3)NC(=O)[C@H](CC(=O)O)NC(=O)CNC(=O)[C@H](CCCNC(=N)N)NC2=O)NC1=O [copper-64 labelled] |  |  | normal mice, pancreas | intravenous, 0.74 MBq, 24 h post-injection |  | tissue uptake | 0.52 ± 0.07 %ID/g
CC(C)[C@@H]1NC(=O)CNC(=O)[C@H](CC(N)=O)NC(=O)[C@H](CCCNC(=N)N)NC(=O)[C@H](Cc2ccc(O)cc2)NC(=O)[C@H](C(C)C)NC(=O)[C@@H](NC(=O)[C@@H](NC(=O)[C@H](CC(N)=O)NC(=O)[C@H](Cc2c[nH]c3ccccc23)NC(=O)[C@H](C)NC(=O)[C@H](Cc2ccccc2)NC(=O)CN)C(C)C)CSSC[C@@H](C(=O)N[C@@H](Cc2cnc[nH]2)C(=O)N[C@@H](CCCNC(=N)N)C(=O)N[C@@H](CCCNC(=N)N)C(=O)N[C@@H](C)C(=O)N[C@@H](CC(N)=O)C(N)=O)NC(=O)[C@H](C(C)C)NC(=O)[C@H](CCCNC(=N)N)NC1=O |  |  | ICR mice, serum | intraperitoneal, 5 mg/kg, day 5 |  | ALT | 48 ± 3.26 IU/L
COc1ncccc1-c1cnn2ccc(N3CCN(C(=O)OC(C)C)CC3)nc12 |  |  | rat, plasma | oral, 30 mg/kg, 1.5 h, with: yohimbine pretreatment |  | concentration | 1800 nM
Cn1cc(-c2nc(N[C@@H]3CCCC[C@@H]3N)c(F)c3c2C(=O)NC3)cn1 |  | item: Epistaxis | patients with relapsed or refractory AML | oral, 60 mg twice daily |  | hemorrhagic adverse events | 38%
CC(C)(c1ccccc1)c1cc(-n2nc3ccccc3n2)c(O)c(C(C)(C)c2ccccc2)c1 |  | exposure assessment | human, age 2-3 years, sunscreen |  |  | dermal uptake | 0.66 ng/kg body weight/day

SMILES | tested on | test | system | conditions | how to read | endpoint | value
Cc1cccc(Cn2nc(C3CC3)c3c(NC(=O)c4cnc5cc(OCCN6CCN(C)CC6)ccn45)cccc32)n1 |  | CTCAE v4.03, item: decreased appetite | advanced solid tumour patients | oral, dose not given, all cohorts, with: pembrolizumab IV every 3 weeks |  | all-cause adverse events | 24.6%
O=C1Nc2cc3[nH]nc(-c4ccncc4)c3cc2CN1Cc1ccccc1 |  | CTCAE v4.03 | advanced solid tumour patients | intravenous, 3.6 mg/kg, schedules 1/2 |  | patients with ≥1 TEAE | 100%
CC(=O)c1c(C)c2cnc(Nc3ccc(C4CCN(CCS(C)(=O)=O)CC4)cn3)nc2n(C2CCCC2)c1=O |  |  | human, dose-escalation trial, plasma | oral, 150 mg twice daily, day 21, multiple doses |  | clearance | 961 mL/min
CCC[C@@](N)(CO)CCc1ccc(OCCCCCC(C)C)cc1 |  |  | dog, male hounds, plasma | oral capsule, 2.5 mg/kg, median |  | Tmax | 8 h
COc1cc2c(Oc3ccc4[nH]c(C)cc4c3F)ccnc2cc1OCC1(N)CC1 |  |  | paediatric recurrent refractory sarcoma | 12 mg |  | grade 1 or 2 Proteinuria | 0%
NC(=O)[C@H]1CCN(c2ncnc(N)c2F)C[C@@H]1N1CCC[C@@H](Nc2cc(Cl)cc(C(F)(F)F)c2)C1=O |  |  | B-cell malignancy patients | oral, 410 mg twice daily, dose |  | grade ≥3 neutropenia | 0%
CC(C)(O)c1cc(Nc2cc(Oc3cn(C4CC4)nc3C3CCOCC3)ccn2)ccn1 |  | Thrombocytopenia | advanced cancer patients, dose escalation | oral, dose not given, 2 weeks on/off, all causality grade ≥3 |  | treatment-emergent adverse events | 0%
O=S(=O)(Nc1ccccc1)c1ccc(NC(=S)Nc2ccccc2)cc1 |  |  | male mice, thymus | oral, 80 mg/kg daily 14 days | relative to: body weight | relative organ weight | 0.26%
CN[C@H]1CC[C@@H](c2ccc(Cl)c(Cl)c2)c2ccccc21 |  |  | CD-1 mouse, male, plasma | intraperitoneal, 1 mg/kg |  | AUC(0-inf) | 62.2 ng·h/mL
COc1ccc(-c2c(-c3ccc(C#N)c(F)c3)nc(N3CCC(N)CC3)n(C)c2=O)cc1F |  | item: Dysgeusia | neuroendocrine neoplasm patients | oral, 60 mg, grade 3 to 4, dose expansion |  | treatment-related adverse event incidence | 0%
CCc1ccc(CC/C=C/c2ccc3c(c2)C(=O)CC3)cc1 |  |  | Sprague-Dawley rat, female | oral, 450 mg/kg/day, 14 days |  | Eosinophil percentage | 0.7%
CCCC(CCC)NC(=O)c1ccc2c(c1)OCO2 |  |  | Swiss albino CD-1 mice, male, bone marrow | intraperitoneal, 350 mg/kg, 48 h |  | PCE/NCE ratio | 0.9
Cc1ccc(F)c2cc(C(=O)N[C@@H]3CCC[C@H](N4CC[C@H](N(C)S(C)(=O)=O)C4)C3)[nH]c12 |  |  | CD1 mouse, plasma | intravenous, 1 mg/kg, 0.5 h |  | plasma concentration | 129 ng/mL
Cc1nc([C@@](C)(CC2CC2)NC(=O)c2cc(OCC(F)(F)F)c(C3CC3)cn2)no1 |  |  | C57BL/6 mice | oral, dose not given |  | oral bioavailability | 68%
COc1cc(C(=O)NC2CCN(C)CC2)c(F)cc1Nc1ncc(C(F)(F)F)c(Oc2cccc3c2C(=O)N(C)C3)n1 |  |  | human patients, urine | oral, 100 mg single dose, geometric mean | relative to: dose | fraction excreted in urine (0-24 h) | 6.23%
CO[C@H]1C[C@@H]2CC[C@@H](C)[C@@](O)(O2)C(=O)C(=O)N2CCCC[C@H]2C(=O)O[C@H]([C@H](C)C[C@@H]2CC[C@@H](OC(=O)NCCOCCOCCOCCOCCOCCOCCOCCOCCC(=O)N3CCc4cc(Cn5nc(-c6ccc7oc(N)nc7c6)c6c(N)ncnc65)ccc4C3)[C@H](OC)C2)C[C@@H](O)[C@H](C)/C=C(\C)[C@@H](O)[C@@H](OC)C(=O)[C@H](C)C[C@H](C)/C=C/C=C/C=C/1C |  | phase 1 dose escalation | advanced solid tumour patients | intravenous, 16 mg weekly, grade ≥3 |  | deaths due to TRAEs | 0%
O=[N+]([O-])c1ccc2c(c1)S(=O)(=O)C=C2 |  |  | male C57BL/6 mice | i.p., 10 mg/kg, day 8, repeated dosing |  | spleen weight | 0.121 g
